Measurements pooled from the literature.
Each line is one published result; not all experiments were run side by side. ± marks the error that the study gave.
Scn2a: Sodium channel protein type 2 subunit alpha (Scn2a, Rattus norvegicus, UniProt P04775)
Scn4a: Sodium channel protein type 4 subunit alpha (Scn4a, Rattus norvegicus, UniProt P15390)
Secreted effector protein C403A/D356A: Secreted effector protein (Yersinia pestis, UniProt O68720, C403A/D356A)

Protein sequences, listed by entry. Tags and fused reporters are not part of them.
UniProt P04775, whole entry: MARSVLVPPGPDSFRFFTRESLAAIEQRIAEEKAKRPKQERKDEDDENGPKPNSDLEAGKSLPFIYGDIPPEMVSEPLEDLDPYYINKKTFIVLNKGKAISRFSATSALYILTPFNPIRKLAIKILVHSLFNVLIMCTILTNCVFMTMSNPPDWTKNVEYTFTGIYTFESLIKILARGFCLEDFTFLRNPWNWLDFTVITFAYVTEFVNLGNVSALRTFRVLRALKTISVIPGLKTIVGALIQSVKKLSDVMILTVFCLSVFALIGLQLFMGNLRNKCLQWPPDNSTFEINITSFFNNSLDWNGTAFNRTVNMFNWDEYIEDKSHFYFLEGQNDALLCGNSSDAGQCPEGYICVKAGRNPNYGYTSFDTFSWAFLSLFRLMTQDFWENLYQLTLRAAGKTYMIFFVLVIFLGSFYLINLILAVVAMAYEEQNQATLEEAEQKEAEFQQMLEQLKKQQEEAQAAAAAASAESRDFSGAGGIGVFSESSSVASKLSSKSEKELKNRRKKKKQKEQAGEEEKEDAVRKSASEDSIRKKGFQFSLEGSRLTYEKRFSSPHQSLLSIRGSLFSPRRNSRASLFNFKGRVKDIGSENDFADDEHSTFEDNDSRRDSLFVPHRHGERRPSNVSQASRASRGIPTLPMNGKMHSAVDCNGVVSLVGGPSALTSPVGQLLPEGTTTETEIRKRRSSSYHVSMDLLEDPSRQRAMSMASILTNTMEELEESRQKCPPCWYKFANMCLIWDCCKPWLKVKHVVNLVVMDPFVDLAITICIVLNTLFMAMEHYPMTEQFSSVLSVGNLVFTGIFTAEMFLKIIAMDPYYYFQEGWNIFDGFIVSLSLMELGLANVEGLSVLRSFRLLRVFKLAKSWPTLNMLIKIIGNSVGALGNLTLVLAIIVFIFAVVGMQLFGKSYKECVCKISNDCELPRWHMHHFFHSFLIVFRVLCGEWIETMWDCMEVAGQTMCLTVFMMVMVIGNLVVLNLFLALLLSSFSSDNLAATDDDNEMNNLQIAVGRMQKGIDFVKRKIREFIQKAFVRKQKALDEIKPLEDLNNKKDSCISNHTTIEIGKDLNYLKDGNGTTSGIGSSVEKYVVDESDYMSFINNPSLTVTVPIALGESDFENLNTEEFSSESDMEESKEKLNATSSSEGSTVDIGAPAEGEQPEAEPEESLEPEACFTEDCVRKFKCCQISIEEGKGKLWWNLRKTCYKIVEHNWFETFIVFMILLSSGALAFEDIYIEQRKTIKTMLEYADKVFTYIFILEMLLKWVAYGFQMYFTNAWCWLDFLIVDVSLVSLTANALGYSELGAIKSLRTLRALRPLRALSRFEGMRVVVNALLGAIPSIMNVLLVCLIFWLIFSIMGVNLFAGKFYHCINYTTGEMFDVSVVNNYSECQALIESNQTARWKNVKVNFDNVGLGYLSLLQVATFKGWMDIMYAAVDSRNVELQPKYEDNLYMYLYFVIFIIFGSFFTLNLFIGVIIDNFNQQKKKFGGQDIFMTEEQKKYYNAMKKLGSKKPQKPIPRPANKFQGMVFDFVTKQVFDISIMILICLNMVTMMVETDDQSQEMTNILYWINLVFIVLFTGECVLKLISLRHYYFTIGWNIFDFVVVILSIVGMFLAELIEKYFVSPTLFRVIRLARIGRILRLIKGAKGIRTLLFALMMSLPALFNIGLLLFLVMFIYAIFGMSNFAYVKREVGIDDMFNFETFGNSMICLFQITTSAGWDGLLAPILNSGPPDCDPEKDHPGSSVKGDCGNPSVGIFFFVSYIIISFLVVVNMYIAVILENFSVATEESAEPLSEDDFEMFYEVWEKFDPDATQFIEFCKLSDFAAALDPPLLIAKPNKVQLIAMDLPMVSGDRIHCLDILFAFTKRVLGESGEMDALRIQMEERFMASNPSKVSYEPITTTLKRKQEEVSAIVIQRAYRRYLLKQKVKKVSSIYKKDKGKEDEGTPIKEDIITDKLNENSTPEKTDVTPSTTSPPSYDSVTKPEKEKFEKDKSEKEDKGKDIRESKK
UniProt P15390, whole entry: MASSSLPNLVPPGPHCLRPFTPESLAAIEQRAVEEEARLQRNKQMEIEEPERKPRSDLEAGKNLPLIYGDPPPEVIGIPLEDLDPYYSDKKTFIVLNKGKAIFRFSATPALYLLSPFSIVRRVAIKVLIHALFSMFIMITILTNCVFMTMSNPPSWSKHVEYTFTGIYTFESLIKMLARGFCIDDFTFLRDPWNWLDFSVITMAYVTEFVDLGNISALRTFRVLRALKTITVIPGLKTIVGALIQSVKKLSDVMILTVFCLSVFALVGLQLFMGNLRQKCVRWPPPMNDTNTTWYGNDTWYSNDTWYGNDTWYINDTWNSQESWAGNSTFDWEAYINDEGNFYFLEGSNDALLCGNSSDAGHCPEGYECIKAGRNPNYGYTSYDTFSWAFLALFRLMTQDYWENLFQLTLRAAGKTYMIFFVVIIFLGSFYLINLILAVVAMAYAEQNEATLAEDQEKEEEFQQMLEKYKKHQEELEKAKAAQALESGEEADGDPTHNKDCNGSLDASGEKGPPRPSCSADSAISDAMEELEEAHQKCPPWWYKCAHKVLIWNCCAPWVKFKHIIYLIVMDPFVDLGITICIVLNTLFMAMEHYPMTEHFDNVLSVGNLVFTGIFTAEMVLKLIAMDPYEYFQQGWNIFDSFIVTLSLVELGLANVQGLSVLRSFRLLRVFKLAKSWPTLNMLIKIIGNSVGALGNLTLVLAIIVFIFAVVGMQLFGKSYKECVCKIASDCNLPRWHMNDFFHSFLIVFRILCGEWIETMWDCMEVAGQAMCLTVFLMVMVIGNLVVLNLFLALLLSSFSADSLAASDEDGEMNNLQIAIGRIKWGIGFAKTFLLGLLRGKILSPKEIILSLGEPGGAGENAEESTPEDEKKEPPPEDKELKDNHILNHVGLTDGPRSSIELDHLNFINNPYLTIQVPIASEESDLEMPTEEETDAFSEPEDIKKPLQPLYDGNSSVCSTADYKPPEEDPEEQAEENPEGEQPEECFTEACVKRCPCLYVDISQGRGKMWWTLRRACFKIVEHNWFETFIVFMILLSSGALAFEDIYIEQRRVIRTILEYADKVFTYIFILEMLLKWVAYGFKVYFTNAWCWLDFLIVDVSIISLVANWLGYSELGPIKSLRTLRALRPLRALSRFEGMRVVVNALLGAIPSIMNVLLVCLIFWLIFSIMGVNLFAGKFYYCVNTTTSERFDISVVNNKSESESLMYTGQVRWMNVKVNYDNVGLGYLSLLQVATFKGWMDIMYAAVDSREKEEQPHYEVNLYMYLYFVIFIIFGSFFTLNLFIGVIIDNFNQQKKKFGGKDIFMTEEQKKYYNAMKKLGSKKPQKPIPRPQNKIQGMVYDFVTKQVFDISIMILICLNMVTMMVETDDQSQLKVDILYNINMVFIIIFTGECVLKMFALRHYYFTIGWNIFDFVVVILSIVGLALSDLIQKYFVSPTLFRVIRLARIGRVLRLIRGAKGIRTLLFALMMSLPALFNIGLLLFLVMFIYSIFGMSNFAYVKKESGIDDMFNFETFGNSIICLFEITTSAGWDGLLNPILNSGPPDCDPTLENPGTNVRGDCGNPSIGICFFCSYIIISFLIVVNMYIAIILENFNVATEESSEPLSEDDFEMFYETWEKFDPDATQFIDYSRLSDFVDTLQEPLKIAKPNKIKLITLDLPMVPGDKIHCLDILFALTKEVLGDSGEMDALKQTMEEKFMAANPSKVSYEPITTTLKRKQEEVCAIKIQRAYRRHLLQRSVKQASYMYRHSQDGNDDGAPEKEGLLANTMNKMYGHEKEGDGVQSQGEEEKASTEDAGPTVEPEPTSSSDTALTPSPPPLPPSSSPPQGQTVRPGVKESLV
UniProt P08104, whole entry: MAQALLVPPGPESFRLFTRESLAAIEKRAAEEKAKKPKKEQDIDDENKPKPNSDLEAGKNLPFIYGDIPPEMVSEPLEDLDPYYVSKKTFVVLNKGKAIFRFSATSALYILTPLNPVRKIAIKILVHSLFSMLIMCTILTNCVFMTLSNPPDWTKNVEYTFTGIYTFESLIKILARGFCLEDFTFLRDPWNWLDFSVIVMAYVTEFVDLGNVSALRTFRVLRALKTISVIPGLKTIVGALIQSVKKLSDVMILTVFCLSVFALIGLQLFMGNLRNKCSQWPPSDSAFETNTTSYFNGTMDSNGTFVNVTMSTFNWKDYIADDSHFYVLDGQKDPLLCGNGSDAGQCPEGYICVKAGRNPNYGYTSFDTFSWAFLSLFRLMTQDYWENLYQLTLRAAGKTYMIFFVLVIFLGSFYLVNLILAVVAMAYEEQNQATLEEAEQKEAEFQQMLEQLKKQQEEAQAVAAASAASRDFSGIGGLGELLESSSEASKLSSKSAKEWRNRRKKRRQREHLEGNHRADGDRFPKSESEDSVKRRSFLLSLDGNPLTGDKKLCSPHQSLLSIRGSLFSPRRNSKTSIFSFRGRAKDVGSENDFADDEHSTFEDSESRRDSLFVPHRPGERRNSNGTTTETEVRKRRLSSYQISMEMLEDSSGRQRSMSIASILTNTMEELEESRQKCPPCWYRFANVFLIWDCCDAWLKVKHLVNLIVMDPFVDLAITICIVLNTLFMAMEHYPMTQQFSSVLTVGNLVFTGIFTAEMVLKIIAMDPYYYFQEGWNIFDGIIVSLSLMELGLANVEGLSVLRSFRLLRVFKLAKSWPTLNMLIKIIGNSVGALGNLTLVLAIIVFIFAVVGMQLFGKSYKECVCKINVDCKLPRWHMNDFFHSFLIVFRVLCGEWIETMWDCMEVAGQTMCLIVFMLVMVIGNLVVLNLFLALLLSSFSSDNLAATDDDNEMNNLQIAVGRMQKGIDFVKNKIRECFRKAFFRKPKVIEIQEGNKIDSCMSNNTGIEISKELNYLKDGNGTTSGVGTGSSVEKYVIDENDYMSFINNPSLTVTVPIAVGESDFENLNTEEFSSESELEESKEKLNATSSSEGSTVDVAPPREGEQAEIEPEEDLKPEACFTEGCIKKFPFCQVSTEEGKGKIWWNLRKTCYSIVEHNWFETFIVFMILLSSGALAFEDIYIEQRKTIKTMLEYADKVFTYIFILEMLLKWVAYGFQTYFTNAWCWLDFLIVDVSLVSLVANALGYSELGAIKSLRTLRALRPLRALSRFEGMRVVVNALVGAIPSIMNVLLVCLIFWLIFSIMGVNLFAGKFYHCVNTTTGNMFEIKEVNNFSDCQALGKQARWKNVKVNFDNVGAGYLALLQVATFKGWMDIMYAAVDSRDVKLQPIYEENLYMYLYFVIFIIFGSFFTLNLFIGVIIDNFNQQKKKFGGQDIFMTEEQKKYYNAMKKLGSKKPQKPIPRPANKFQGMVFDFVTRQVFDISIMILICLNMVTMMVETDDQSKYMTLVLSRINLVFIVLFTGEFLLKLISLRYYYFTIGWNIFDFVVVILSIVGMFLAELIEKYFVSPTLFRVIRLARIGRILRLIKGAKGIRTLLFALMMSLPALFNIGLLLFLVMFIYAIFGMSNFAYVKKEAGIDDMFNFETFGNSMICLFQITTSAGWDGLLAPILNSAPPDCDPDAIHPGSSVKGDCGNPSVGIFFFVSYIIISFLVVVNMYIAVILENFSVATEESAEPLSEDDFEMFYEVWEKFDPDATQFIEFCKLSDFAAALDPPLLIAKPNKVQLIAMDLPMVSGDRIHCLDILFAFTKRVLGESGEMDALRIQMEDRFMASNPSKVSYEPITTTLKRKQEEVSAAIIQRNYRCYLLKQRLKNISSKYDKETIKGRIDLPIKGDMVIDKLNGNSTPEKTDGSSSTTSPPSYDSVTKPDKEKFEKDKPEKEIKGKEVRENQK
UniProt P22303, whole entry, looked up: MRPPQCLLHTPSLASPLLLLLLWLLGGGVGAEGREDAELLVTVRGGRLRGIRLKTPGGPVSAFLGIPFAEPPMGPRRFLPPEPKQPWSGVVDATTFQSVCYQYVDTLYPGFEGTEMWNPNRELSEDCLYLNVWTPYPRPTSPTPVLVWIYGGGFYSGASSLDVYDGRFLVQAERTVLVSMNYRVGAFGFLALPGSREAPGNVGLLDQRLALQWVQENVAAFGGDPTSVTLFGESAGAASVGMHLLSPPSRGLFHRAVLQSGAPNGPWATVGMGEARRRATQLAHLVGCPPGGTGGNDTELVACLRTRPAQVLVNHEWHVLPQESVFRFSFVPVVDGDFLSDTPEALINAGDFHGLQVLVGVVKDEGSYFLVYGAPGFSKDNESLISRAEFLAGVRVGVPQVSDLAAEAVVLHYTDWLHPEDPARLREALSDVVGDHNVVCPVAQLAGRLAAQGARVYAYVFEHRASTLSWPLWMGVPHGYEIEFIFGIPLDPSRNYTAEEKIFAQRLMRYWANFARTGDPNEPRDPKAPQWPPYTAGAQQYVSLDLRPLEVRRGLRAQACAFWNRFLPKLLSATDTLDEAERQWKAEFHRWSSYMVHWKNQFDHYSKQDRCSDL

SMILES | tested on | assay | test system | conditions | how to read | quantity | result
C[C@@H]1NC(=O)[C@H](Cc2c[nH]cn2)NC(=O)[C@H](CC(=O)O)NC(=O)[C@H](CCCNC(=N)N)NC(=O)[C@@H]2CSSC[C@H](NC(=O)[C@H](CC(N)=O)NC(=O)[C@@H]3CCC(=O)N3)C(=O)N[C@H]3CSSC[C@H](NC(=O)[C@H](CCCNC(=N)N)NC1=O)C(=O)N[C@H](C(N)=O)C[Se][Se]C[C@H](NC(=O)CNC(=O)CNC(=O)[C@H](CC(N)=O)NC3=O)C(=O)N[C@@H](CO)C(=O)N[C@@H](CO)C(=O)N[C@@H](CCCCN)C(=O)N[C@@H](Cc1c[nH]c3ccccc13)C(=O)N2 | Scn2a | ion current, blocker, electrophysiology |  |  |  | Kd | 0.037 ± 0.006 µM
Cc1ccccc1S(=O)(=O)Nc1cccc(C(=O)NC2CCN(c3ncnc4[nH]cnc34)CC2)c1 | SARS-CoV-2 |  | Wuhan-Hu-1 | 0.03048 µM | baseline: untreated infected cells | relative infection | 85.5%
CC[C@H](C)[C@@H]1NC(=O)[C@H](CCCNC(=N)N)NC(=O)[C@@H](N)CSSC[C@@H]2NC(=O)[C@@H]3CSSC[C@@H](C(=O)N[C@H](C(=O)O)C(C)C)NC(=O)[C@H](CCCCN)NC(=O)[C@H](CC(N)=O)NC(=O)[C@H](Cc4ccccc4)NC(=O)[C@H](CCCNC(=N)N)NC(=O)[C@H](CC(N)=O)NC(=O)[C@H](CSSC[C@H](NC(=O)[C@H](CCCCN)NC(=O)[C@H](CCC(N)=O)NC(=O)[C@H](CC(N)=O)NC(=O)[C@@H]4C[C@@H](O)CN4C1=O)C(=O)N[C@@H](Cc1ccccc1)C(=O)N[C@@H](CCC(N)=O)C(=O)N[C@@H](Cc1c[nH]cn1)C(=O)N[C@@H](CC(C)C)C(=O)N[C@@H](CC(=O)O)C(=O)N[C@@H](CC(=O)O)C(=O)N3)NC(=O)[C@H](CCCCN)NC(=O)[C@H](CCCNC(=N)N)NC(=O)[C@H](CO)NC2=O | Sh (Drosophila melanogaster, UniProt P08510, del6-46) | potassium current, outside-out patch clamp |  | pulse application, zero voltage, internal K 100, together with: 1 mM TEA |  | Kd | 0.341 ± 0.038 µM
CC(C)[C@H](N)C(=O)NCC(=O)N[C@@H](CCC(=O)O)C(=O)N[C@@H](CCCNC(=N)N)C(=O)N[C@H]1C[Se][Se]C[C@@H]2NC(=O)[C@H](Cc3c[nH]c4ccccc34)NC(=O)[C@H](CCCNC(=N)N)NC(=O)CNC(=O)[C@H](CSSC[C@@H](C(N)=O)NC(=O)[C@H](C)NC(=O)[C@H](CCCNC(=N)N)NC(=O)[C@H](CO)NC(=O)[C@H](Cc3c[nH]cn3)NC(=O)[C@H](CC(=O)O)NC(=O)[C@H](CCCNC(=N)N)NC2=O)NC(=O)CNC(=O)[C@H](CCCNC(=N)N)NC(=O)[C@H](CCCCN)NC(=O)CNC(=O)[C@H](CC(N)=O)NC(=O)[C@H](CCCCN)NC(=O)[C@H](C)NC1=O | Scn4a | sodium current, blocker, two-electrode voltage clamp | Xenopus laevis oocytes |  |  | Kd | 0.001 µM
C[C@@H]1NC(=O)[C@H](Cc2c[nH]cn2)NC(=O)[C@H](CC(=O)O)NC(=O)[C@H](CCCNC(=N)N)NC(=O)[C@@H]2CSSC[C@H](NC(=O)[C@H](CC(N)=O)NC(=O)[C@@H]3CCC(=O)N3)C(=O)N[C@H]3CSSC[C@H](NC(=O)[C@H](CCCNC(=N)N)NC1=O)C(=O)N[C@H](C(N)=O)CSSC[C@H](NC(=O)CNC(=O)CNC(=O)[C@H](CC(N)=O)NC3=O)C(=O)N[C@@H](CO)C(=O)N[C@@H](CO)C(=O)N[C@@H](CCCCN)C(=O)N[C@@H](Cc1c[nH]c3ccccc13)C(=O)N2 | Scn2a | ion current, blocker, electrophysiology |  |  |  | Kd | 0.047 ± 0.016 µM
CC(C(=O)O)c1nn(C)c2nc(N)[nH]c(=O)c2c1=O (stereo not shown) | Dihydropteroate synthase (Bacillus anthracis, UniProt Q81VW8) |  |  |  |  | Kd | 0.24 ± 0.07 µM
CC(C)[C@H](N)C(=O)NCC(=O)N[C@@H](CCC(=O)O)C(=O)N[C@@H](CCCNC(=N)N)C(=O)N[C@H]1C[Se][Se]C[C@@H]2NC(=O)[C@H](Cc3c[nH]c4ccccc34)NC(=O)[C@H](CCCNC(=N)N)NC(=O)CNC(=O)[C@H](C)NC(=O)CNC(=O)[C@H](CCCNC(=N)N)NC(=O)[C@H](CCCCN)NC(=O)CNC(=O)[C@H](CC(N)=O)NC(=O)[C@H](CCCCN)NC(=O)[C@H](CSSC[C@@H](C(=O)N[C@@H](C)C(N)=O)NC(=O)[C@H](CCCNC(=N)N)NC(=O)[C@H](CO)NC(=O)[C@H](Cc3c[nH]cn3)NC(=O)[C@H](CC(=O)O)NC(=O)[C@H](CCCNC(=N)N)NC2=O)NC1=O | Sodium channel protein type 3 subunit alpha (Scn3a, Rattus norvegicus, UniProt P08104) | sodium current, blocker, two-electrode voltage clamp | Xenopus laevis oocytes |  |  | Kd | 0.42 ± 0.05 µM
Nc1ncnc2c1ncn2[C@@H]1O[C@H](COP(=O)(O)OP(=O)(O)OP(=O)(O)O)[C@@H](O)[C@H]1O | Genome polyprotein, RNA polymerase 3D (Human poliovirus 1 Mahoney, UniProt P03300, K2107H) | AMP incorporation, substrate |  | pH 7.5 |  | Kd | 340 ± 20 µM
CCOP(=O)(OCC)ON1C(=O)c2cccc3cccc(c23)C1=O | Acetylcholinesterase (Ache, Rattus norvegicus, UniProt P37136) | enzyme activity, inhibitor, discontinuous Ellman | rat, postnatal day 70, rat skeletal muscle homogenate | 15 min, 37 °C |  | IC50 | 0.041 µM
CCN(CC)Cc1cc(N)ccc1O | Acetylcholinesterase, VR-inhibited (ACHE, Homo sapiens, UniProt P22303) | enzyme reactivation, reactivator | VR |  |  | Kd | 5460 ± 2020 µM
C[C@H](N)C(=O)N[C@H]1CSSC[C@@H]2NC(=O)[C@H](CCCNC(=N)N)NC(=O)[C@H](CO)NC(=O)[C@H](Cc3cnc[nH]3)NC(=O)[C@H](CC(=O)O)NC(=O)[C@H](CCCNC(=N)N)NC(=O)[C@H](C)NC(=O)[C@H](Cc3c[nH]c4ccccc34)NC(=O)[C@H](CCCCN)NC(=O)[C@H](CO)NC(=O)[C@H](CO)NC(=O)[C@H](CSSC[C@@H](C(N)=O)NC2=O)NC(=O)[C@H](CC(N)=O)NC1=O | Scn2a | sodium current, blocker, two-electrode voltage clamp | Xenopus oocytes |  |  | Kd | 0.008 ± 0.002 µM
COc1ccc(S(=O)(=O)Nc2cccc(C(=O)NC3CCN(c4ncnc5[nH]cnc45)CC3)c2)cc1 | SARS-CoV-2 |  | Wuhan-Hu-1 | 0.01016 µM | baseline: untreated infected cells | relative infection | 83.7%
O=C(NS(=O)(=O)OC[C@H]1O[C@@H](n2cnc3c(NCc4ccccc4)ncnc32)[C@H](O)[C@@H]1O)c1ccccc1O | Yersiniabactin siderophore biosynthetic protein (Yersinia pseudotuberculosis serotype I, UniProt Q3V7P9) | binding |  |  |  | Kd | 0.00134 ± 0.00029 µM
CC[C@H](C)[C@H](NC(=O)[C@H](C)NC(=O)[C@H](CCC(=O)O)NC(=O)[C@H](CCC(=O)O)NC(=O)[C@H](CC(C)C)NC(=O)[C@H](CCCCN)NC(=O)[C@H](CCCCN)NC(=O)[C@H](CCSC)NC(=O)[C@H](CCC(=O)O)NC(=O)[C@H](Cc1ccc(O)cc1)NC(=O)[C@H](CCC(=O)O)NC(=O)[C@H](CC(C)C)NC(=O)[C@H](CC(=O)O)NC(=O)[C@H](CC(C)C)NC(=O)[C@H](Cc1ccccc1)NC(=O)[C@H](Cc1ccccc1)NC(=O)[C@@H](NC(=O)[C@H](CC(N)=O)NC(=O)[C@@H](NC(=O)[C@H](CCC(N)=O)NC(=O)[C@H](CC(=O)O)NC(=O)[C@H](CC(C)C)NC(=O)[C@@H](N)CO)[C@@H](C)CC)C(C)C)C(=O)N[C@@H](CCCCN)C(=O)N[C@@H](CCCCN)C(=O)N[C@@H](CC(C)C)C(=O)N[C@@H](CCC(=O)O)C(=O)N[C@@H](CCC(=O)O)C(=O)N[C@@H](C)C(=O)N[C@@H](Cc1ccc(O)cc1)C(=O)N[C@H](C(=O)N[C@@H](CC(=O)O)C(=O)N[C@@H](CC(C)C)C(=O)N[C@@H](CCCCN)C(=O)N[C@@H](CCC(=O)O)C(=O)N[C@@H](CC(C)C)C(=O)O)[C@@H](C)CC | SARS-CoV-2 XBB.1.5 pseudovirus | pseudovirus infection, inhibitor, luciferase | Caco-2 | 24 h, dual mutations |  | IC50 | 2.05 µM
C[C@@H]1NC(=O)[C@H](Cc2c[nH]c3ccccc23)NC(=O)[C@H](CCCCN)NC(=O)COCCNC(=O)[C@@H]2CSSC[C@@H](C(N)=O)NC(=O)[C@H](CSSC[C@H](N)C(=O)N[C@@H](CC(N)=O)C(=O)N2)NC(=O)[C@H](CCCNC(=N)N)NC(=O)[C@H](CO)NC(=O)[C@H](Cc2c[nH]cn2)NC(=O)[C@H](CC(=O)O)NC(=O)[C@H](CCCNC(=N)N)NC1=O | Scn2a | sodium current, blocker, two-electrode voltage clamp | Xenopus oocytes |  |  | Kd | 0.046 µM
O=P(O)(O)C(F)(F)c1cccc(-c2ccc(CO/N=C/c3ccoc3)cc2)c1 | Secreted effector protein C403A/D356A | surface plasmon resonance |  | immobilized protein |  | Kd | 292 µM
C[C@@H]1NC(=O)[C@H](CCCNC(=N)N)NC(=O)[C@H](CO)NC(=O)[C@H](Cc2cnc[nH]2)NC(=O)[C@H](CC(=O)O)NC(=O)[C@H](CCCNC(=N)N)NC(=O)[C@@H]2CSSC[C@H](N)C(=O)N[C@@H](C)C(=O)N[C@@H](CC(N)=O)C(=O)N[C@@H](CSSC[C@@H](C(N)=O)NC1=O)C(=O)N[C@@H](CO)C(=O)N[C@@H](CO)C(=O)N[C@@H](CCCCN)C(=O)N[C@@H](Cc1c[nH]c3ccccc13)C(=O)N2 | Scn4a | sodium current, blocker, two-electrode voltage clamp | Xenopus oocytes |  |  | Kd | 0.37 ± 0.11 µM
CC[C@H](C)[C@H](NC(=O)[C@H](C)NC(=O)[C@H](CCC(=O)O)NC(=O)[C@H](CCC(=O)O)NC(=O)[C@H](CC(C)C)NC(=O)[C@H](CCCCN)NC(=O)[C@H](CCCCN)NC(=O)[C@H](CCSC)NC(=O)[C@H](CCC(=O)O)NC(=O)[C@H](Cc1ccc(O)cc1)NC(=O)[C@H](CCC(=O)O)NC(=O)[C@H](CC(C)C)NC(=O)[C@H](CC(=O)O)NC(=O)[C@H](CC(C)C)NC(=O)[C@H](Cc1ccccc1)NC(=O)[C@H](Cc1ccccc1)NC(=O)[C@@H](NC(=O)[C@H](CC(N)=O)NC(=O)[C@@H](NC(=O)[C@H](CCC(N)=O)NC(=O)[C@H](CC(=O)O)NC(=O)[C@H](CC(C)C)NC(=O)[C@@H](N)CO)[C@@H](C)CC)C(C)C)C(=O)N[C@@H](CCCCN)C(=O)N[C@@H](CCCCN)C(=O)N[C@@H](CC(C)C)C(=O)N[C@@H](CCC(=O)O)C(=O)N[C@@H](CCC(=O)O)C(=O)N[C@H](C(=O)N[C@@H](Cc1ccc(O)cc1)C(=O)N[C@H](C(=O)N[C@@H](CC(=O)O)C(=O)N[C@@H](CC(C)C)C(=O)N[C@@H](CCCCN)C(=O)N[C@@H](CCC(=O)O)C(=O)N[C@@H](CC(C)C)C(=O)O)[C@@H](C)CC)[C@@H](C)O | SARS-CoV-2 JN.1 pseudovirus | pseudovirus infection, inhibitor, luciferase | Caco-2 | 24 h, dual mutations |  | IC50 | 0.0678 µM
N[C@@H](Cc1ccc(OP(=O)(O)O)cc1)C(=O)O | Secreted effector protein C403A/D356A | surface plasmon resonance |  | immobilized protein |  | Kd | 10000 µM

Some of these lines once more:
SMILES | tested on | assay | test system | conditions | how to read | quantity | result
O=P(O)(O)C(F)(F)c1cccc(-c2ccc(CO/N=C/c3ccoc3)cc2)c1 | Secreted effector protein C403A/D356A | surface plasmon resonance |  | immobilized protein |  | Kd | 292 µM
